# Measured values from different studies.
# Lines come from different studies, so protocols differ.
# Target: High affinity nerve growth factor receptor (NTRK1, Homo sapiens, UniProt P04629)
# UniProt P04629, sequence (whole entry, looked up): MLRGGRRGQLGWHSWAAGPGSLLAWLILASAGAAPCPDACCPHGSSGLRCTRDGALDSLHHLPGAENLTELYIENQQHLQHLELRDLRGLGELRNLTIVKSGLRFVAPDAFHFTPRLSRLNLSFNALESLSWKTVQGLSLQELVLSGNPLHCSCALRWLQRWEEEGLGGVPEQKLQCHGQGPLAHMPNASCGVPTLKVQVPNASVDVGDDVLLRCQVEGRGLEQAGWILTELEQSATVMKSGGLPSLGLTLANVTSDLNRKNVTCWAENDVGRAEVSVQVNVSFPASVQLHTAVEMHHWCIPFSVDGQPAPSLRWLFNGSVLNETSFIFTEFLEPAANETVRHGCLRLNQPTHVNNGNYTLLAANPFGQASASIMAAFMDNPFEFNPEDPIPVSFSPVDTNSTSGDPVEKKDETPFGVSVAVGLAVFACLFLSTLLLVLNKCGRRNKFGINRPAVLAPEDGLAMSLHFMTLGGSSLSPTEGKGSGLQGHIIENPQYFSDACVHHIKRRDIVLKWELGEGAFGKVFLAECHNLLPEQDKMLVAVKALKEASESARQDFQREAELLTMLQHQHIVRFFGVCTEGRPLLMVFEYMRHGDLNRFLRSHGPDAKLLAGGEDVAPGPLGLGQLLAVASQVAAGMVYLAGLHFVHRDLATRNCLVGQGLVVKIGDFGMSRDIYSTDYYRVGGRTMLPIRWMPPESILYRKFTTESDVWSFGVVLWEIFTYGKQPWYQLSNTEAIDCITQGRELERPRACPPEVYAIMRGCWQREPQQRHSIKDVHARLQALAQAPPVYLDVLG
SMILES,test,setting,how to read,measurement,value
CS(C)(=O)=Nc1ccc(-c2ccc(-c3nc4cc(O[C@@H]5CO[C@H]6[C@@H]5OC[C@H]6O)[nH]c4cc3F)cc2)cc1,"enzyme activity, inhibitor",10 µM,,inhibition,9%
Nc1ccc(/C=C/C(=O)N2CCc3c(oc4c(-c5ccc(F)cc5)cc(-c5ccc(C(=O)N6CCC(F)(F)CC6)cn5)cc34)C2)cn1,"binding, competition with immobilised ligand",1 µM,,remaining binding,100%
CN(/N=C/c1ccccc1C(=O)O)c1nc(-c2ccccc2Cl)cs1,"enzyme activity, inhibitor",1 µM,,inhibition,-43.1%
CCOC(=O)[C@@H]1Cc2c(cc([N+](=O)[O-])cc2[N+](=O)[O-])[C@H](O)[C@]12C(=O)Nc1ccc(Br)cc12,"binding, competition with immobilised ligand",0.1 µM,,remaining binding,68%
CC(C)[C@H]1NC(=O)C[C@H]2/C=C/CCSSC[C@@H](NC1=O)C(=O)N[C@H](Cc1cccc3ccccc13)C(=O)NCC(=O)O2,"enzyme activity, inhibitor",10 µM,,inhibition,6.8%
O=C1NC(=O)c2c1c1cc(F)c[n+]3c1c1c2c2cc(O)ccc2[n]1[Ru-4]312([N]=C=S)[S+]3CC[S+]1CC[S+]2CC3 (centres unmarked),enzyme activity,"100 nM, human enzyme, together with: 10 µM ATP",relative to: untreated,remaining activity,17%
N[C@H](C(=O)N1CCCC1)C1CCN(c2nccc3c(-c4ncc(Cl)cc4Cl)cccc23)CC1,"kinase activity, inhibitor","10 µM, together with: ATP 1 mM",,inhibition,23.2%
C[C@H](NCc1ccc(-c2ccc(C(F)(F)F)cc2)cc1)C(N)=O,"cell-free assay, competition with immobilised ligand",1 µM,,inhibition,0%

# Repeated from above:
SMILES,test,setting,how to read,measurement,value
CCOC(=O)[C@@H]1Cc2c(cc([N+](=O)[O-])cc2[N+](=O)[O-])[C@H](O)[C@]12C(=O)Nc1ccc(Br)cc12,"binding, competition with immobilised ligand",0.1 µM,,remaining binding,68%
